Published values of several laboratories.
Lines come from different studies, so protocols differ.
Cell line: Vero

SMILES | effect on | method | concentration | time | setting | measurement | result
O=C1/C(=N\NC(=S)NN=Cc2cccs2)c2ccccc2N1Cc1ccccc1 | cell morphology | – | – | – | – | minimum cytotoxic concentration | 100 µM
CC(C)(C)[Si](C)(C)OC[C@H]1O[C@@H](n2cc(I)c(=O)[nH]c2=O)[C@H](I)[C@@H](O[Si](C)(C)C(C)(C)C)[C@@H]1O[Si](C)(C)C(C)(C)C | – | MTT | concentration not given | – | – | cytotoxicity | toxic
CC[C@H](C)[C@H](NC(=O)[C@H](CC(C)C)NC(=O)CNC(=O)[C@H](CCCCN)NC(=O)[C@@H](NC(=O)[C@@H](NC(=O)[C@H](CC(N)=O)NC(=O)[C@H](Cc1c[nH]c2ccccc12)NC(=O)[C@@H](NC(=O)[C@H](CCC(=O)O)NC(=O)CNC(=O)[C@H](Cc1c[nH]c2ccccc12)NC(=O)[C@@H](N)CC(C)C)[C@@H](C)CC)[C@@H](C)O)C(C)C)C(N)=O | – | MTT | 10 µg/mL | 48 h | – | viability | > 95%
O=C(Cc1csc2nc(-c3ccc(Br)cc3)cn12)NN=C1CCCC1 | – | microscopy of cell morphology | – | – | – | minimum cytotoxic concentration | ≥ 100 µg/mL
CC(C)(C)[Si](C)(C)OC[C@H]1O[C@@H](n2ccc(=O)[nH]c2=O)[C@H](I)[C@@H](O[Si](C)(C)C(C)(C)C)[C@@H]1O[Si](C)(C)C(C)(C)C | – | MTT | concentration not given | – | – | cytotoxicity | toxic
COc1cc(O)c2c(=O)c3c(O)c(-c4c(C)cc5c(c4O)C(=O)C4=C(O)C[C@H](OC)[C@@H](O)[C@]4(C)O5)c(C)cc3oc2c1OC | cytotoxicity | – | – | 4 d | – | IC50 | 21.6 µM
NC(=O)c1ccc[n+](-c2ccccc2)c1 | cell growth or viability | – | 25 µM | 72 h | – | viability | > 80%
CO[C@H]1CC(O)=C2C(=O)c3c(cc(C)c(-c4c(C)cc5c(c4O)C(=O)C4=C(O)C[C@H](OC)[C@@H](O)[C@]4(C)O5)c3O)O[C@@]2(C)[C@@H]1O | cytotoxicity | – | – | 4 d | – | IC50 | 4.7 µM
CC(=O)OC[C@H]1O[C@@H](NC(=O)NC(=O)[C@@H](C)Cc2ccc(C(C)C)cc2)[C@H](OC(C)=O)[C@@H](OC(C)=O)[C@@H]1OC(C)=O | – | – | – | – | – | minimum cytotoxic concentration | > 100 µM
Cc1nc2ccccc2n1CC(=O)NO | – | – | 100 µM | 24 h | – | cytotoxicity | not toxic
O=C(/C=C/c1ccccc1)c1cc2ccccc2oc1=O | – | MTT | up to 100 µg/mL | 48 h | – | viability | > 80%
O=c1[nH]c(=O)c2cccc(O)c2o1 | cytotoxicity | – | – | – | up to 50 µg/mL | IC50 | inactive

A few entries again:
SMILES | effect on | method | concentration | time | setting | measurement | result
O=C1/C(=N\NC(=S)NN=Cc2cccs2)c2ccccc2N1Cc1ccccc1 | cell morphology | – | – | – | – | minimum cytotoxic concentration | 100 µM
CC(C)(C)[Si](C)(C)OC[C@H]1O[C@@H](n2cc(I)c(=O)[nH]c2=O)[C@H](I)[C@@H](O[Si](C)(C)C(C)(C)C)[C@@H]1O[Si](C)(C)C(C)(C)C | – | MTT | concentration not given | – | – | cytotoxicity | toxic
